Results of several laboratories.
A part holds a random share of what one study measured.

Series 1
Target: Centromere-binding protein 1, full length, His-tagged (CBF1, Saccharomyces cerevisiae, UniProt P17106, residues 1-351)
Sequence of UniProt P17106 (whole entry, looked up): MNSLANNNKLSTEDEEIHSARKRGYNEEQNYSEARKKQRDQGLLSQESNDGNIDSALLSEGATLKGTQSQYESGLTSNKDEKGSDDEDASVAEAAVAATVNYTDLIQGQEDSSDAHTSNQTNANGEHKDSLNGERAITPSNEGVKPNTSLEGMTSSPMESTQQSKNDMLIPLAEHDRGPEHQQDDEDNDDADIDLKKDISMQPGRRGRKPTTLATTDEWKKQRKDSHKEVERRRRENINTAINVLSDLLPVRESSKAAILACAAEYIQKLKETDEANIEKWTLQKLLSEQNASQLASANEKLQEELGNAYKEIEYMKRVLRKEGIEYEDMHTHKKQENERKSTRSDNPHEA
Method: competition protein-binding microarray
Molecule type: double-stranded DNA, one strand shown
Medium: in vitro
Concentration: 2 µM
Setting: whole 60-bp probe, lowest competitor level
With: Pho4 competitor, 0.05 µM
Reading: higher = stronger binding
Endpoint: fluorescence intensity
TGTTACACATCGACATACGTGCTTTCATAGAAAGAGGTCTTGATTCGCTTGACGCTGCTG: 84.4 a.u.
GTCTTGTCTCATTGTTGAGTGGGTGTCCCCACTTCAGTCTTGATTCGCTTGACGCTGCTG: 70.8 a.u.
AAATTACTAAGTTGGACCGTGGGTGACGCCGTATGAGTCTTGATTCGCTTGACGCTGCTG: 57.7 a.u.
CCCAATCTGAGAGAGAACGTGCCGAGGCCGCCTTCAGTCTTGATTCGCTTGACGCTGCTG: 77.8 a.u.
TGCTCTCGAAGCCGTCACGTGCGGATCTAGGCCTGCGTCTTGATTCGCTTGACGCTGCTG: 3590 a.u.
CATACCCAACCTTGACAGGTGGGTGAAGATATTTGTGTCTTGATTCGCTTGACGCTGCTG: 66.3 a.u.

Series 2
Target: RNA binding protein fox-1 homolog 2, RRM domain, GST-SBP tag (RBFOX2, Homo sapiens, UniProt O43251-10, residues 100-194)
Method: RNA Bind-n-Seq
Molecule type: RNA
Medium: in vitro
Concentration: 365 nM
Setting: natural RNA segment, single round, ends assumed
Baseline: no-protein control
Reading: higher = stronger binding
Endpoint: RBNS enrichment (R)
Residues (chain): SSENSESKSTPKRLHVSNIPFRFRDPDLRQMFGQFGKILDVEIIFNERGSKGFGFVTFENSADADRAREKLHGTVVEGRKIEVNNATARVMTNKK
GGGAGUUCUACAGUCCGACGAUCCCCCUGUCCCCACUCCCACCCCCUAGGGUCCUUGCUCCCAGUAUCUUCCUACAGGGAAGAAGAGCAACCCUCAGCAGCCCUCUUGCCCCUCCAUGGGGUGAAGCCACACUUGGAAUUCUCGGGUGCCAA: 0.394
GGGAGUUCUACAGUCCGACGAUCGAUGUAUUCGGUGUAGCUGAGGUCACUUUGGAAGUCUGUGGCUGUUCCAUGUCCUAGGCAAGCCACUUGUUAACCCUGAGUGACAAUCUUUAUAAAUCAUUGUUAAUUCAUGGAAUUCUCGGGUGCCAA: 0.381
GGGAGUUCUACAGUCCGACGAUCCAAACACAAACACCUACUUGGGCUGCACACAGUCACACAAUCAAUCUAUAAUUCUUGGGGUUAGCUCAGUCCAUUUACUUGUGUAUUUCUGAGUGGUUGGUGAGAUUACUUGGAAUUCUCGGGUGCCAA: 0.348
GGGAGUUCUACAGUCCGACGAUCUUCUGGUUGGAAAUUAUAUAAACCAACAUGACAAUAACUGUUUCCCCCCAAAAGGCUCAGGAGCUGACUUUUAGAAGUGAGGUUCAAAGUCUUUAACCACUUCUGAAUCUUGGAAUUCUCGGGUGCCAA: 0.301
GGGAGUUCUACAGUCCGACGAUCGUAUAUGCGAUCUCUACCGAGAAGCAAGCACAAAAGUAGACAAAAGUAUUAAUGAGUAUUUCCUUUCUCCAUAAGUGCAGGACUGUUACUCACUACUAAACUCUACCAAGUGGAAUUCUCGGGUGCCAA: 0.347

Series 3
Target: Prothrombin, mature alpha-thrombin (F2, Homo sapiens, UniProt P00734)
Method: aptamer microarray, sandwich
Molecule type: DNA with 2'F-ANA
Medium: in vitro
Concentration: 200 nM
Setting: whole 15-mer aptamer, many near background
With: Cy3 exosite-II aptamer, 400 nM
Reading: higher = stronger binding
Endpoint: mean fluorescence intensity
Sequence: GGTTGGTGTGGTTGG
2'F-ANA at 5 6 8 10 12 13 14 15: 45.4 a.u.
2'F-ANA at 3 4 5 6 9 10 14 15: 59 a.u.
2'F-ANA at 1 2 3 5 6 8 9 10 11 12 14 15: 62.4 a.u.
2'F-ANA at 2 3 5 6 7: 99.6 a.u.
2'F-ANA at 1 2 3 4 5 7 8 9 10 14 15: 50.9 a.u.
2'F-ANA at 1 2 3 4 5 7 8 11 12 15: 96.8 a.u.
2'F-ANA at 3 4 5 7 9 13 14: 52.5 a.u.

Mixed results
PhoQ, residues 284 288 289 292 302 303 ALAMYF  fold induction (PhoP, residues 12 14 15 18 19 VQALL (Escherichia coli, UniProt P23836); Sort-seq, item: YFP reporter; E. coli; PhoQ-PhoP variant library, with: 10 µM Mg2+; baseline: high Mg2+ state, higher = stronger signaling): 8.29
